Results of several laboratories.
Numbered parts are unrelated; each lists some results of a single study.
Sequence of UniProt P10721 (whole entry, unmodified, looked up): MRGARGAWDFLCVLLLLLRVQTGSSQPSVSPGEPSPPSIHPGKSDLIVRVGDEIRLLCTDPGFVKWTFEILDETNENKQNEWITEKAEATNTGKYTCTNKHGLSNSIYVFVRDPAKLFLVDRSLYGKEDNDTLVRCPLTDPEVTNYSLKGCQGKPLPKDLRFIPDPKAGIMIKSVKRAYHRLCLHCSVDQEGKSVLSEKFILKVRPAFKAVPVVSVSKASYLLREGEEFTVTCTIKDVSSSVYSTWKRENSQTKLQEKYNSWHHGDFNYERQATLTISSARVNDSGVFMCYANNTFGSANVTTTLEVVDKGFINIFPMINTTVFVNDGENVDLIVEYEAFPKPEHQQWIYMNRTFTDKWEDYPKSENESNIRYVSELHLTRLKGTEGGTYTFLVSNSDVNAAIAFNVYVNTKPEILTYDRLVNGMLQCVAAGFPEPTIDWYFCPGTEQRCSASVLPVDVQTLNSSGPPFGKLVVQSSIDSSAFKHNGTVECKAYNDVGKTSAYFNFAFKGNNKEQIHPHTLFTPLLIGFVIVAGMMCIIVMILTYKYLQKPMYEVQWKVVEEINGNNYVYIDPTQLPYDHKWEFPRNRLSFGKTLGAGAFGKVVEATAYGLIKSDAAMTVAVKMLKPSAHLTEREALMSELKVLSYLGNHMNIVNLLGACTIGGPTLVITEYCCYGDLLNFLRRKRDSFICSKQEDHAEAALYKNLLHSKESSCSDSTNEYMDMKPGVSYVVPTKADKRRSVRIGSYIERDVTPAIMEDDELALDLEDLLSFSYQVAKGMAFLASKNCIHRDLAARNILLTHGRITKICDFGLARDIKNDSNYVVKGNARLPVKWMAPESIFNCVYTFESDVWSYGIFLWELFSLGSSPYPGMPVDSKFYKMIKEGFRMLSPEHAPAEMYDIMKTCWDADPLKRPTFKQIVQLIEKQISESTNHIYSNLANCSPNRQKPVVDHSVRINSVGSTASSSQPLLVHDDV
Sequence of UniProt O95819 (whole entry, looked up): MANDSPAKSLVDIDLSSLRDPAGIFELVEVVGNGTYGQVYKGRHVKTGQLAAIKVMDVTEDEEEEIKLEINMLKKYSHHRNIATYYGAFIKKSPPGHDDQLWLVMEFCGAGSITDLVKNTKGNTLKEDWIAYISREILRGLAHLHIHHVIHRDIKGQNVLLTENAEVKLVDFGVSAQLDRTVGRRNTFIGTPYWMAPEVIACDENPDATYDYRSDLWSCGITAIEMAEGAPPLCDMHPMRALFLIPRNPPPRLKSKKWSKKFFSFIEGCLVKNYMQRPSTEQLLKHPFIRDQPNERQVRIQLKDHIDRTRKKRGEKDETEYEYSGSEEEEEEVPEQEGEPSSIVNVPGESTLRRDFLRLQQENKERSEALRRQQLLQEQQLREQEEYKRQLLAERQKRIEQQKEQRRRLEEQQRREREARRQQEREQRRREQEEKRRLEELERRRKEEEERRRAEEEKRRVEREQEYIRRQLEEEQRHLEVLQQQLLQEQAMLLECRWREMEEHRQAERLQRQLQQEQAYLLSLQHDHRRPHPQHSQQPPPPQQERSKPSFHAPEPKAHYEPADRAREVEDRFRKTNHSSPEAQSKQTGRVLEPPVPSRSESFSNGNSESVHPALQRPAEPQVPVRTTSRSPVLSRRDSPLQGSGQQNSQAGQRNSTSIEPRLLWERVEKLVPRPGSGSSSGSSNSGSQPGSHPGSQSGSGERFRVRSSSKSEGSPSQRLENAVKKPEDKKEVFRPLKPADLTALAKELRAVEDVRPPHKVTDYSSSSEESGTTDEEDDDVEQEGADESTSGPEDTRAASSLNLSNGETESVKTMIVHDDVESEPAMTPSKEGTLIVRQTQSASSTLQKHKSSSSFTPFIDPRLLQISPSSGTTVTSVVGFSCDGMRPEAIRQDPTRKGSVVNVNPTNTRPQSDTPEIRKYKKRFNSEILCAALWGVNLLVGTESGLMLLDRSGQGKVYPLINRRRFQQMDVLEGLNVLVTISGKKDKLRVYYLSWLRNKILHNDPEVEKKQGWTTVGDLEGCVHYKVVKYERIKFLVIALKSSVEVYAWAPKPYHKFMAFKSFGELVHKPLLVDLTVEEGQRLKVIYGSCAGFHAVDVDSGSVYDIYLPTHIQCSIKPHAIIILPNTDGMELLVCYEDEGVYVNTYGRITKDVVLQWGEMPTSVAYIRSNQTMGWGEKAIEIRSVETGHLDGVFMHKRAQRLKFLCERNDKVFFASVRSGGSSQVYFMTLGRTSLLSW
Sequence of UniProt P51451 (whole entry, looked up): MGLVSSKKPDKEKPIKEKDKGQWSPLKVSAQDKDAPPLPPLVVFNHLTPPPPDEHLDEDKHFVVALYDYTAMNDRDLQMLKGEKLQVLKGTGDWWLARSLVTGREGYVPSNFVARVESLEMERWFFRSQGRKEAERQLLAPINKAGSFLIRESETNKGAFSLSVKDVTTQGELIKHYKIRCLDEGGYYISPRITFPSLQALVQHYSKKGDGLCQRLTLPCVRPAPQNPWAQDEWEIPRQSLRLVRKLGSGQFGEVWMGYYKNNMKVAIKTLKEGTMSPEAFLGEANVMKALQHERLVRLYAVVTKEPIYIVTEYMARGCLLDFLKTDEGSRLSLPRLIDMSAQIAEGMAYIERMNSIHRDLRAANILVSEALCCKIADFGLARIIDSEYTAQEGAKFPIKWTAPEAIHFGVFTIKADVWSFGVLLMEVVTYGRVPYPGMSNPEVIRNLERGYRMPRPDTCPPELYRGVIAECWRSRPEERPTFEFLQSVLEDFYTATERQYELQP
Sequence of UniProt P42336 (whole entry, unmodified, looked up): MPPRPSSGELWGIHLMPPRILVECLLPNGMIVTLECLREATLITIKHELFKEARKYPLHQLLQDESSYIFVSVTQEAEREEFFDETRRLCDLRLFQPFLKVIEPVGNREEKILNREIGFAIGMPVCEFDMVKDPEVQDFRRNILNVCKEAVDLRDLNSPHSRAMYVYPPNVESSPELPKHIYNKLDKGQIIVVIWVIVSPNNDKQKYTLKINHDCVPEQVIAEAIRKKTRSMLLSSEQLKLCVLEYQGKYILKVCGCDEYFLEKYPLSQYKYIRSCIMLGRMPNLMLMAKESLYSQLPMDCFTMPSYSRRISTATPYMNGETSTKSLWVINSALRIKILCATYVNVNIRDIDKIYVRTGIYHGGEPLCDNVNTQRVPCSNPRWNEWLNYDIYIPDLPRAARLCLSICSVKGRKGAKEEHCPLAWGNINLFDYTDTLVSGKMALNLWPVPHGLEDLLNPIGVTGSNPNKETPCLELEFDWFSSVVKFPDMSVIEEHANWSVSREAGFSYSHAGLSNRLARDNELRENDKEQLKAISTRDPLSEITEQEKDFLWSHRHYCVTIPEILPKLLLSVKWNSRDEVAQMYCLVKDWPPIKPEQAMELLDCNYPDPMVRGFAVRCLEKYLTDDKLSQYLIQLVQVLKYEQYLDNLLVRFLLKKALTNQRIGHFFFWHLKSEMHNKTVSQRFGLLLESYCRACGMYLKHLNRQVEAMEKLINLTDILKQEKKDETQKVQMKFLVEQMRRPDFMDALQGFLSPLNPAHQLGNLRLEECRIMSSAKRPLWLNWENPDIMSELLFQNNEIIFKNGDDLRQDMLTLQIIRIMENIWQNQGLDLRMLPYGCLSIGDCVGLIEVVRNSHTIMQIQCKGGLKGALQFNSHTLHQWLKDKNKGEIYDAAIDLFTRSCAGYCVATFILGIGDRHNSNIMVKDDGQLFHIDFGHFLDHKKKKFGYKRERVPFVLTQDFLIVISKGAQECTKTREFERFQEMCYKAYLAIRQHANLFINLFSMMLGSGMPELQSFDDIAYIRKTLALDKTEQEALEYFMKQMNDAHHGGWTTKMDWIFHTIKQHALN
Sequence of UniProt P30530 (whole entry, looked up): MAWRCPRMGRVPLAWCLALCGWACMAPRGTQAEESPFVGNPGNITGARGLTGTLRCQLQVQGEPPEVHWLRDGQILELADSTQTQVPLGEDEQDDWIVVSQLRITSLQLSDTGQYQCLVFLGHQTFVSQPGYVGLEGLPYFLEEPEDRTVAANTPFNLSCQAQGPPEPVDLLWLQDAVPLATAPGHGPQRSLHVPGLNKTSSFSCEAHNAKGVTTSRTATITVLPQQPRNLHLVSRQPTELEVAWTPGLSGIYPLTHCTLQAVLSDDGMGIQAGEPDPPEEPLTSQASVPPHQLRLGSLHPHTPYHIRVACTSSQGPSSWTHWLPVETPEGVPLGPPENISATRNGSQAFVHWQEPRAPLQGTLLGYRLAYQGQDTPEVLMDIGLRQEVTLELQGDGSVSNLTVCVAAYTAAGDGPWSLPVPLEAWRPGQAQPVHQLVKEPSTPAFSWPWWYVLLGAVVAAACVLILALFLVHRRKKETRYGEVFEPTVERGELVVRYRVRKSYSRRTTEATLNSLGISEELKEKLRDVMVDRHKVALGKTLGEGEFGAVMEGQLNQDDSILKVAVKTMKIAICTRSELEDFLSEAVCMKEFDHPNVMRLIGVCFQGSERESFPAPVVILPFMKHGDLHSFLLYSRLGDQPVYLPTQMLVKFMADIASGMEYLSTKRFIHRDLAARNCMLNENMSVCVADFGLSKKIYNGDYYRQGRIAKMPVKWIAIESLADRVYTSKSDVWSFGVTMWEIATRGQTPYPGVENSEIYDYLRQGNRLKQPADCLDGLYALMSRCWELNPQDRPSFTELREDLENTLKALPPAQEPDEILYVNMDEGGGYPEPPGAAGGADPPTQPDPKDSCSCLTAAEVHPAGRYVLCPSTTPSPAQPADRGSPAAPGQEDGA
Sequence of UniProt P06493 (whole entry, looked up): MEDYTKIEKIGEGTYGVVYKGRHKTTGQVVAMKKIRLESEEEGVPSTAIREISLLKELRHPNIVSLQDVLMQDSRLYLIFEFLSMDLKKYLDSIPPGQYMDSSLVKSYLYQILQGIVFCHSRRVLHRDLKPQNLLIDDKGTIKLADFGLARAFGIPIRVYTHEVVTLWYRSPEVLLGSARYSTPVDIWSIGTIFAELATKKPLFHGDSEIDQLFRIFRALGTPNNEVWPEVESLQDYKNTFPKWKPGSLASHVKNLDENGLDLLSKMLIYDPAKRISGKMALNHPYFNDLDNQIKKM

Block 1
SMILES: CS(=O)(=O)N1CCCC(NC(=O)[C@H](CCC2CCCCC2)NC(=O)c2ccc(CNC(=O)c3cnc4ccccn34)cc2)C1 (stereo partly drawn)
Read-out: cell-free assay
Method: competition with immobilised ligand
Concentration: 0.1 µM
It gave 80% for remaining binding (WNK4 (Homo sapiens, UniProt Q96J92)).
It gave 92% for remaining binding (TEK (Homo sapiens, UniProt Q02763)).
MUSK (Homo sapiens, UniProt O15146) — remaining binding: 91%.
OXSR1 (Homo sapiens, UniProt O95747) — remaining binding: 94%.
Insulin receptor (INSR, Homo sapiens, UniProt P06213) — remaining binding: 100%.
For KIT (Homo sapiens, UniProt P10721, D816H): remaining binding read 44%.
It gave 72% for remaining binding (PKN1 (Homo sapiens, UniProt Q16512)).
For IKBKB (Homo sapiens, UniProt O14920): remaining binding read 100%.
The remaining binding was 83% (EGFR (Homo sapiens, UniProt P00533, L858R)).
It gave 100% for remaining binding (KIT (Homo sapiens, UniProt P10721, D816V)).
The remaining binding was 73% (IGF1R (Homo sapiens, UniProt P08069)).
The remaining binding was 86% (PIK3CA (Homo sapiens, UniProt P42336, E545K)).
The remaining binding was 100% (PKN2 (Homo sapiens, UniProt Q16513)).
For MET (Homo sapiens, UniProt P08581, Y1235D): remaining binding read 99%.
For CAMK2A (Homo sapiens, UniProt Q9UQM7): remaining binding read 100%.
It gave 66% for remaining binding (SBK3 (Homo sapiens, UniProt P0C264)).
PIK3CA (Homo sapiens, UniProt P42336, E542K) — remaining binding: 78%.
DDR1 (Homo sapiens, UniProt Q08345) — remaining binding: 0.1%.
The remaining binding was 100% (STK35 (Homo sapiens, UniProt Q8TDR2)).
The remaining binding was 62% (MET (Homo sapiens, UniProt P08581)).
BLK (Homo sapiens, UniProt P51451) — remaining binding: 100%.
The remaining binding was 100% (MAP4K4 (Homo sapiens, UniProt O95819)).

Block 2
Structure (SMILES): CC(C)n1cnc(-c2ccc(F)cc2)c1-c1ncc(C(=O)Nc2ccc(N3CCN(C)CC3)cc2)[nH]1
Phase 2a trial, item: hyperlipidaemia; human, idiopathic pulmonary fibrosis; 60 mg once daily, grade 4 — “patients with adverse event”: 0%.
It gave 0% for “patients with adverse event” (Phase 2a trial, item: haemorrhoids; human, idiopathic pulmonary fibrosis; all compound arms, grade 3).
It gave 0% for “patients with adverse event” (Phase 2a trial, item: blood creatinine increased; human, idiopathic pulmonary fibrosis; 30 mg once daily, grade 2).
The “patients with adverse event” was 0% (item: AST increase; patients with idiopathic pulmonary fibrosis; 30 mg twice daily, trial, together with: standard of care therapy).
For item: prostatic calcification, maximum grade 2; idiopathic pulmonary fibrosis patients; oral, 30 mg once daily: “patients with adverse event” read 0%.
It gave 0% for “patients with adverse event” (Phase 2a trial, item: blood pressure increased; human, idiopathic pulmonary fibrosis; all compound arms total, grade 4).
For Phase 2a trial, item: hypoalbuminaemia; human, idiopathic pulmonary fibrosis; all compound arms total, grade 5: “patients with adverse event” read 0%.
For Phase 2a trial, item: hypoalbuminaemia; human, idiopathic pulmonary fibrosis; 30 mg once daily, grade 2: “patients with adverse event” read 0%.

Block 3
Compound: CCCCc1c(-c2ccc(OC)cc2)[nH]c2nccnc12
Read-out: enzyme activity
Action: inhibitor
Concentration: 0.5 µM
Baseline: control
The remaining activity was 98.6% (MAPKAPK3 (Homo sapiens, UniProt Q16644)).
It gave 76% for remaining activity (EPHB1 (Homo sapiens, UniProt P54762)).
DYRK3 (Homo sapiens, UniProt O43781) — remaining activity: 96.1%.
HIPK2 (Homo sapiens, UniProt Q9H2X6) — remaining activity: 109%.
EPHB4 (Homo sapiens, UniProt P54760) — remaining activity: 89.5%.
For PDPK1 (Homo sapiens, UniProt O15530): remaining activity read 102%.
For HIPK4 (Homo sapiens, UniProt Q8NE63): remaining activity read 119%.
The remaining activity was 79.7% (Cyclin-dependent kinase 6, with cyclin D3 (CDK6, Homo sapiens, UniProt Q00534)).
For RPS6KA6 (Homo sapiens, UniProt Q9UK32): remaining activity read 78.2%.
The remaining activity was 69.7% (Cyclin-dependent kinase 4, with cyclin D3 (CDK4, Homo sapiens, UniProt P11802)).
It gave 88.4% for remaining activity (WNK3 (Homo sapiens, UniProt Q9BYP7)).
For CAMK2B (Homo sapiens, UniProt Q13554): remaining activity read 97.6%.
It gave 47.8% for remaining activity (Cyclin-dependent kinase 1, with cyclin B (CDK1, Homo sapiens, UniProt P06493)).
It gave 104% for remaining activity (RPS6KA5 (Homo sapiens, UniProt O75582)).
The remaining activity was 95.5% (STK17A (Homo sapiens, UniProt Q9UEE5)).
The remaining activity was 85.5% (EPHA4 (Homo sapiens, UniProt P54764)).
It gave 96.7% for remaining activity (BLK (Homo sapiens, UniProt P51451)).
The remaining activity was 66.5% (MAP4K4 (Homo sapiens, UniProt O95819)).
STK16 (Homo sapiens, UniProt O75716) — remaining activity: 58.7%.
It gave 93.7% for remaining activity (TSSK2 (Homo sapiens, UniProt Q96PF2)).
It gave 96.7% for remaining activity (SRMS (Homo sapiens, UniProt Q9H3Y6)).
PHKG1 (Homo sapiens, UniProt Q16816) — remaining activity: 89.4%.
For ABL1 (Homo sapiens, UniProt P00519): remaining activity read 83.4%.
It gave 110% for remaining activity (AXL (Homo sapiens, UniProt P30530)).

Block 4
Cell line: HaCaT
Concentration: 100 µM
Time: 60 h
The viability of `O=C1CCc2cc(OCCCCc3nnnn3C3CCCCC3)ccc2N1` is reported as 134%.
For `CC1=C(C(=O)O)N2C(=O)[C@@H](NC(=O)[C@H](N)c3ccc(O)cc3)[C@H]2SC1`, the viability was 170%.
`CC(=O)OCC(=O)[C@@]1(O)CC[C@H]2[C@@H]3CCC4=CC(=O)CC[C@]4(C)[C@H]3C(=O)C[C@@]21C` has a viability of 129%.
For `Cc1cccc(C)c1OCC(C)N` (stereo not drawn), the viability was 111%.
For `CC(=O)N1CCN(c2ccc(OC[C@@H]3CO[C@@](Cn4ccnc4)(c4ccc(Cl)cc4Cl)O3)cc2)CC1` (racemic), the viability was 17.4%.
`Nc1c(CC(=O)O)cccc1C(=O)c1ccc(Br)cc1` has a viability of 139%.
With `C1N2CN3CN1CN(C2)C3` the viability was 142%.
With `NS(=O)(=O)c1cc2c(cc1Cl)N=C(CSCc1ccccc1)NS2(=O)=O` the viability was 130%.
`NC(=O)N1c2ccccc2C=Cc2ccccc21` has a viability of 130%.
For `CC(=O)Nc1c(I)c(NC(C)=O)c(I)c(C(=O)O)c1I`, the viability was 153%.
For `NCCCC(N)(C(=O)O)C(F)F` (stereo not drawn), the viability was 110%.
`Cc1c(NC(=O)c2cccnc2)c(=O)n(-c2ccccc2)n1C` gave a viability of 144%.

Some of these lines once more (block 3):
It gave 93.7% for remaining activity (TSSK2 (Homo sapiens, UniProt Q96PF2)).
PHKG1 (Homo sapiens, UniProt Q16816) — remaining activity: 89.4%.
For ABL1 (Homo sapiens, UniProt P00519): remaining activity read 83.4%.
The remaining activity was 98.6% (MAPKAPK3 (Homo sapiens, UniProt Q16644)).
For CAMK2B (Homo sapiens, UniProt Q13554): remaining activity read 97.6%.
The remaining activity was 66.5% (MAP4K4 (Homo sapiens, UniProt O95819)).
It gave 47.8% for remaining activity (Cyclin-dependent kinase 1, with cyclin B (CDK1, Homo sapiens, UniProt P06493)).
It gave 96.7% for remaining activity (SRMS (Homo sapiens, UniProt Q9H3Y6)).
